Assay results of several laboratories.
Every numbered part comes from another study and shows a few of its results, in no order. Changes are numbered by the printed parent chain.

Series 1 — target: CCNE2, cyclin fold, Cln2 fusion (human); technique: yeast growth competition, sequencing; matrix: yeast; notes: strong parent motif; baseline: not given; reading: higher = stronger binding; measurement: normalised enrichment score
Starting sequence: CDC25A docking peptide (human); PPHRRRLLFACSP; partner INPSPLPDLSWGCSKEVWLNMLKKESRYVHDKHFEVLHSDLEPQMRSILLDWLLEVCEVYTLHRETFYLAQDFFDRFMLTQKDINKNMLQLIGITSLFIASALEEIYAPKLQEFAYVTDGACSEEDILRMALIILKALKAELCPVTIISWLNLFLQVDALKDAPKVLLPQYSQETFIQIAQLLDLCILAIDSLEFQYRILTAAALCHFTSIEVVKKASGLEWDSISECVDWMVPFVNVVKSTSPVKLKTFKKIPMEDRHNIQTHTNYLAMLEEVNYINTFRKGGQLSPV
F9N: 0.637
P2S: 1.2
P2R: 2.17
P2D: 0.889
P2Y: 1.49
L7K: 0.757
L7H: 0.458
S12L: 1.19
A10E: 3.37
P13V: 1.86
S12M: 1.43
A10P: 2.37
S12H: 1.52
R5H: 1.33
C11I: 1.92
R4I: 2.33
L8W: 1.57
P1S: 2.68
C11Y: 1.05

Series 2 — technique: DHFR PCA, deep sequencing; matrix: yeast; together with: (+)-ABA 58 µM; baseline: wild-type fitted maximum; reading: higher = stronger binding; measurement: relative binding score
Target: ABI1, truncated, D143A, DHFR fusion (Arabidopsis thaliana)
Notes: methotrexate growth selection, single substitutions
Starting sequence: PYL1, truncated, DHFR fusion (Arabidopsis thaliana); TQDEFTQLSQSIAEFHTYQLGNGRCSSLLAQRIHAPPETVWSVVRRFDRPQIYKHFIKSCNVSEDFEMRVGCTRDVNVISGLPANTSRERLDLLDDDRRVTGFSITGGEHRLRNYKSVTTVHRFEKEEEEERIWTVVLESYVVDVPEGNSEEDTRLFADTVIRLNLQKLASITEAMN; partner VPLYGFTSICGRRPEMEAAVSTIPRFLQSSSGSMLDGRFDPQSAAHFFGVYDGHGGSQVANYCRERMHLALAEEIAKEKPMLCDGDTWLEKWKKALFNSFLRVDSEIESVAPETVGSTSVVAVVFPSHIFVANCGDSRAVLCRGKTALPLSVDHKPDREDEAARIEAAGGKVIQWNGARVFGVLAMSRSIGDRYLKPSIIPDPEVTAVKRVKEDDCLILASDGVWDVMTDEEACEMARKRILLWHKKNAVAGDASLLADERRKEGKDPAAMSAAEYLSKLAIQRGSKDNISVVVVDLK
A170T: 69.9%
H55N: 79.6%
D48K: 0.391%
L8V: 73%
D3P: 84.2%
L91E: 1.22%
Q2H: 89.4%
F157R: 0.18%
T119K: 4.92%
E127I: 89.7%
E109H: 75%
V142S: 79.8%
Y53C: 13.4%
F124K: 59.1%
S140E: -1.92%
S27T: 42.1%
R74G: 0.653%
D92G: 16.1%

Series 3 — technique: RNA Bind-n-Seq; molecule type: RNA; matrix: in vitro; concentration: 200 nM; notes: whole 134-nt RNA, ends assumed; together with: 150 mM KCl; baseline: input library; reading: higher = stronger binding; measurement: log2 enrichment
Target: Fragile X messenger ribonucleoprotein 1, C-terminal low-complexity region (Fmr1, Mus musculus, UniProt P35922)
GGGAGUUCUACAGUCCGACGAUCGCAGGAAGUAAAAACAAAUGGAAAUUCUUCGGAUAGUGGCAGGGGUGGGGGUUGCUAAGGAAAGGGUGGGAUGGGAGUGGGUAAAGAGUUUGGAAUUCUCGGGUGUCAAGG: -0.0153
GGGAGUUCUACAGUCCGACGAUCUCCUGUGCUACACAUCGUAUGUACCGAAUCGGGAAAAAAAGGGUUUUUGGGAAAAAGGGAAAGUAUUAUGUUACGCCGUUCGGAUCUGCAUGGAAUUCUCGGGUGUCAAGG: -0.306
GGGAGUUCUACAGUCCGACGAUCAAGUCCUGUGCUACACAUCGUAUGUACCGAAUCGGGAAAGGGAAAAAAAGGGAGGGAAAGUAUUAUGUUACGCCGUUCGGAUCUGCACUUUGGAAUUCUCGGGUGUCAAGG: 0.502
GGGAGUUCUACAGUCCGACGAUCUUCUAUUUCUUUCCUUAAUGUUUUUUUCUUCCCUACUGUUUUAUCCUCCCUUUGCUUUGGAAGGAUAUUGCUGCAUAUCGAGCUAAAGGAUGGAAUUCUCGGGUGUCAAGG: 0.0967
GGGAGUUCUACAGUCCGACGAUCUGGCAUGGAUCCAGUGGGCUGAGACCACCCUCAUUCAGCGGGAUCAGGAGCCAAUCCCGCAGAACAUUGACCGAGUUAAAGCCCUUAUCGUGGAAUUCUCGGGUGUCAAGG: -1.11
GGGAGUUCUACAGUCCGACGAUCUGGCUUCGAAGUACAGUCUUUGCAGGAUGCAGGAAAUCAGCUUGGUAUGGAGGAUACAUCUCUGAGCUCUGGAAUGCUCACCCAGAACACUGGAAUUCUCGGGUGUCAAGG: -0.463
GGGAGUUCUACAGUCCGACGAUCGUCCUGUGCUACACAUCGUAUGUACCGAAUCGGGCCCCCGGGGCCCCCGGGCCCCCGGGAAAGUAUUAUGUUACGCCGUUCGGAUCUGCAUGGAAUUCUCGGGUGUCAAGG: -0.763
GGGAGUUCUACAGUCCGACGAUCCACAGACAACACGCACCCACACAGACACAGAGGGAAGGGGUUGGGAUGGGGACAGGGUGCACAGCAGGGCGGCGUAGGACCCCAGCCCCUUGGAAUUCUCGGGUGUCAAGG: 1.09
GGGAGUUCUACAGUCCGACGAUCCUGUGCUACACAUCGUAUGUACCGAAUCGGGGAAAAAGGGGAAAAAAAGGGGAAAAAGGGGAAAGUAUUAUGUUACGCCGUUCGGAUCUGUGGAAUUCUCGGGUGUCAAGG: -0.279
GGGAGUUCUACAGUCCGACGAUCGCAGGAAGUAAAAUCAAAUGGAAAUGCUUCGGAUAGUGGCAGGGGUGGGGGUUGCUAAGGAAAGGGUGGGAUGGGAGUGGGUAAAGAGUUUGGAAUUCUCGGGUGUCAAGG: 0.332
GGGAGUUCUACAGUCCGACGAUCCUCAAGUCCUGUGCUACACAUCGUAUGUACCGAAUCGGGCGGGCGGGGCGGGGAAAGUAUUAUGUUACGCCGUUCGGAUCUGCACUUCCAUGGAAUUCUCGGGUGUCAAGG: 1.39
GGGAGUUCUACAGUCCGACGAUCGCAGGAAGUAAAAACAAAUGGAAAUGCUUCGGAUAGUGGCAAGGGUGGGGGUUGCUAAGGAAAGGGUGGGAUGGGAGUGGGUAAAGAGUUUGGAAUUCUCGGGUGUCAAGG: 0.0805
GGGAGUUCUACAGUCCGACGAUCAAGUCCUGUGCUACACAUCGUAUGUACCGAAUCGGGGAGGGGAGGGGUUUUUGGGGAAAGUAUUAUGUUACGCCGUUCGGAUCUGCACUUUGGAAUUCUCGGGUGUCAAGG: 0.836
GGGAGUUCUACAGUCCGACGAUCUGAAGACACAGCAUCCACCCGAUCUUCAUUCACUGUCCAAGACCUUAAACCUUUUACAGAAUAUGUGUUUAGGAUUCGCUGUAUGAAGGAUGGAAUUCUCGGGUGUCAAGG: 0.179

Single results of other studies
PhoQ, residues 284 288 289 292 302 303 QWQEDG
fold induction (PhoP, residues 12 14 15 18 19 QYCSL (Escherichia coli, UniProt P23836); Sort-seq, item: YFP reporter; E. coli; PhoQ-PhoP variant library, together with: 10 µM Mg2+; baseline: high Mg2+ state, higher = stronger signaling): 0.752

Excerpt of the above (series 2):
L8V: 73%
F157R: 0.18%
D3P: 84.2%
Q2H: 89.4%
R74G: 0.653%
A170T: 69.9%
D92G: 16.1%
